Assay results collected from several papers.
Each numbered part is a random draw from the data of one study; scales do not carry over between parts. Values joined by “and” are separate records of one study, mostly repeats; a detail may differ. Substitutions count along the parent as printed.
Sequence of UniProt Q15349 (whole entry, looked up): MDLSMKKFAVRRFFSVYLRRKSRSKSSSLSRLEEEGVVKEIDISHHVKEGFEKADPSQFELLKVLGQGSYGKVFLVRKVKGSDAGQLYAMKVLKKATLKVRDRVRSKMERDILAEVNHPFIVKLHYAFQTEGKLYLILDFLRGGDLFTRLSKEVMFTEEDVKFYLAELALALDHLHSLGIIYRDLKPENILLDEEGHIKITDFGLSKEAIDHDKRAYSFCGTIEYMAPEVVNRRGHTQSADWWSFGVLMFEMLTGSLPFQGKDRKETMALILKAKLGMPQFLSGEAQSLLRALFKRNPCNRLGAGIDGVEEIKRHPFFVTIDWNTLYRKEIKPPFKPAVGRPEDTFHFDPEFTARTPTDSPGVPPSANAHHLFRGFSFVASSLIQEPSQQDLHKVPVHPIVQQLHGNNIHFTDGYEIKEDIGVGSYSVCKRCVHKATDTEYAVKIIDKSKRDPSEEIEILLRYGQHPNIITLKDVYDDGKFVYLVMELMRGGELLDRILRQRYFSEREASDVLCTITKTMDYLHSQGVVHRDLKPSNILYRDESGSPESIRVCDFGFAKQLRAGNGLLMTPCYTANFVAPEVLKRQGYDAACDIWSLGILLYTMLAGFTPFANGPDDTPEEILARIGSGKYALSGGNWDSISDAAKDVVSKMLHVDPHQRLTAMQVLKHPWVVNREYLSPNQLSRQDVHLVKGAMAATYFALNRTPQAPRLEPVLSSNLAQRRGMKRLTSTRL
Sequence of UniProt Q9HC98 (whole entry, looked up): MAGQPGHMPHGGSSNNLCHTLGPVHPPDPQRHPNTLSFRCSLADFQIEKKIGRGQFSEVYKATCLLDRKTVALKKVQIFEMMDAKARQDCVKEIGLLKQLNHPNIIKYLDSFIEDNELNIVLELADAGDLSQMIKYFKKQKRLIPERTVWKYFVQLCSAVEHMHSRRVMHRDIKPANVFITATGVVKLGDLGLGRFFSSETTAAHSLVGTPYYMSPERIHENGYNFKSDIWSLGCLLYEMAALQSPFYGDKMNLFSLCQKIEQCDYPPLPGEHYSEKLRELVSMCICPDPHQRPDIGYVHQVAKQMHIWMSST
Sequence of UniProt P52333 (whole entry, looked up): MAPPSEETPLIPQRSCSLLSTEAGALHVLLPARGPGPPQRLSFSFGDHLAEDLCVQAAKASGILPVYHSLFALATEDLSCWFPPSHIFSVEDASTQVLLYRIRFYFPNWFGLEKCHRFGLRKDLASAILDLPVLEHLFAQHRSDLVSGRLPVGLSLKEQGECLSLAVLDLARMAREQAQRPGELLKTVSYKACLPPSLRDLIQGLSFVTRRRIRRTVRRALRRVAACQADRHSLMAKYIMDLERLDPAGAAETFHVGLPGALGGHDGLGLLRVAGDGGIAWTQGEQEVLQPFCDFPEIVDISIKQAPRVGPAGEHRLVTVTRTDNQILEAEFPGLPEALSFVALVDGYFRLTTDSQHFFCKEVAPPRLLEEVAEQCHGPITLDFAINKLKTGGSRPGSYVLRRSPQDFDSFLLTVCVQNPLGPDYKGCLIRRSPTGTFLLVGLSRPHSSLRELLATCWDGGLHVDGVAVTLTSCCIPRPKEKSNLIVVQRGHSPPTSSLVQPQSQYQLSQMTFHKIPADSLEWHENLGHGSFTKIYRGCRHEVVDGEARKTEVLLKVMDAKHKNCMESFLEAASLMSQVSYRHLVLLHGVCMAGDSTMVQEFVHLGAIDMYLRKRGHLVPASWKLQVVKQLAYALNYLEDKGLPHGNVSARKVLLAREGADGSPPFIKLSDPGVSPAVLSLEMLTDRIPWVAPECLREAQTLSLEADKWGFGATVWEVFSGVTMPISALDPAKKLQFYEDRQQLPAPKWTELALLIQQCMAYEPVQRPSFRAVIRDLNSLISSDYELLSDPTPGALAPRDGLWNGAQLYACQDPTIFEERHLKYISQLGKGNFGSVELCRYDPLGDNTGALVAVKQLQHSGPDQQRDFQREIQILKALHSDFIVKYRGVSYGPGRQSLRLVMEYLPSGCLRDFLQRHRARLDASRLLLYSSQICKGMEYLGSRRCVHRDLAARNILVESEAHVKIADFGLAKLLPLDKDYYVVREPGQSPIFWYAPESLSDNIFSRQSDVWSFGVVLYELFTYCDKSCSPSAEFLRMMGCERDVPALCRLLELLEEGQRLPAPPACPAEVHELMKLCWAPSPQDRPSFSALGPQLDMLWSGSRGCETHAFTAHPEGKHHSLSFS
Sequence of UniProt P27361 (whole entry, looked up): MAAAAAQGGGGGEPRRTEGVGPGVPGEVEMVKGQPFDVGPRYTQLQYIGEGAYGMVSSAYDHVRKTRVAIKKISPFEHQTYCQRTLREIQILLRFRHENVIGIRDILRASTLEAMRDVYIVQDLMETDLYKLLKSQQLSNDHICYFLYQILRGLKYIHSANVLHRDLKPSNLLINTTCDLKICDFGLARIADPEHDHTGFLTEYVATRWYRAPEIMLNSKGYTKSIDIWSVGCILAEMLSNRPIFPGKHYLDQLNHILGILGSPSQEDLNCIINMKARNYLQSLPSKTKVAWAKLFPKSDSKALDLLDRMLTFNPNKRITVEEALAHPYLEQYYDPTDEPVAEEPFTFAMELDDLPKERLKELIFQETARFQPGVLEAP

Set 1
Target: UBE2W UBC core domain (UniProt Q96B02)
Technique: yeast two-hybrid
Medium: yeast
Setting: mostly zero background
Baseline: not given
Reading: higher = stronger interaction
B1: ZNRF3 RING domain (UniProt Q9ULT6); chain DTLSSSSTSDCAICLEKYIDGEELRVIPCTHRFHRKCVDPWLLQHHTCPHCRHNIIEQKGNP
B2: PRKN RING domain (UniProt O60260); chain LIATNSRNITCITCTDVRSPVLVFQCNSRHVICLDCFHLYCVTRLNDRQFVHDPQLGYSLPCVAGCPNSLIKELHH
B3: TRIM22 RING domain (UniProt Q8IYM9); chain KEVKMSPQEGQKRDVCEHHGKKLQIFCKEDGKVICWVCELSQEHQGHQTFRINEVVKECQEK
B4: DTX1 RING domain (UniProt Q86Y01); chain QKVKNPPDEDCTICMERLVTASGYEGVLRHKGVRPELVGRLGRCGHMYHLLCLVAMYSNGNKDGSLQCPTCKAIYGEKTGTQ
Construct (chain): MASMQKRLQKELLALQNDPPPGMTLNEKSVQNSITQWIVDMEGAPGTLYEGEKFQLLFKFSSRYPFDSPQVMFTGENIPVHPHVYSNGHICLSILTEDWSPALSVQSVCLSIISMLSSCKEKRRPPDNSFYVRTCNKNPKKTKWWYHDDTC
Molecule	lacZ reporter activity
B1 (ZNRF3 RING domain)	0
B2 (PRKN RING domain)	0
B3 (TRIM22 RING domain)	0
QLRRLQEERTCKVCLDRAVSIVFVPCGHLVCAECAPGLQLCPICRAPVRSRVRTF (BIRC7 RING domain (UniProt Q96CA5))	0
B4 (DTX1 RING domain)	0
NTAPSLTVPECAICLQTCVHPVSLPCKHVFCYLCVKGASWLGKRCALCRQEIPEDFLDK (RNF146 RING domain (UniProt Q9NTX7))	0
ALDRLEKLLRCSRCTNILREPVCLGGCEHIFCSNCVSDCIGTGCPVCYTPAWIQDLKI (BARD1 RING domain (UniProt Q99728))	0
KEQLEKHNDICAICYQDMKSAVITPCSHFFHAGCLKKWLYVQETCPLCHCHLKNSSQLP (RNF145 RING domain (UniProt Q96MT1))	0

Set 2
Target: CCNB1, cyclin fold, Cln2 fusion (human)
Technique: yeast growth competition, sequencing
Medium: yeast
Setting: strong parent motif
Baseline: not given
Reading: higher = stronger binding
Starting sequence: viral docking peptide; TSVRRALFTGGSD
Variant	normalised enrichment score
TSVRRALFTGGQD [S12Q]	2.39
TSVRRRLFTGGSD [A6R]	1.98
TSVRRALFTGGID [S12I]	2.07
TSVRRALFTGGYD [S12Y]	1.91
TSVDRALFTGGSD [R4D]	0.0648
TSVRRASFTGGSD [L7S]	-0.0917
TSVRRALFTKGSD [G10K]	0.997
TSVRRALFTGGGD [S12G]	2.07

Set 3
SMILES: CN[C@@H]1C[C@H]2O[C@@](C)([C@@H]1OC)n1c3ccccc3c3c4c(c5c6ccccc6n2c5c31)C(=O)NC4
Read-out: enzyme activity
Action: inhibitor
Tested at: 0.5 µM
Baseline: control
target	remaining activity
MAPK3 (Homo sapiens, UniProt P27361)	97.2% and 88.4%
JAK3 (Homo sapiens, UniProt P52333)	0.738% and 0.781%
RPS6KA2 (Homo sapiens, UniProt Q15349)	1.61% and 3.06%
NEK6 (Homo sapiens, UniProt Q9HC98)	88.6% and 110%

Single results of other studies
SMILES	cell line	test	setting	how to read	quantity	value
COc1cc([C@@H]2c3cc4c(cc3[C@H](O)[C@H]3COC(=O)[C@H]23)OCO4)cc(OC)c1OC	mouse MPNST tumor cells	high-content nuclear imaging, measured: cell number	10 µM, 12 h, mean of 2 replicates	baseline: plate mean, higher = more cells	nuclei count	-4.16 z-score

Excerpt of the above (set 1):
Molecule	lacZ reporter activity
QLRRLQEERTCKVCLDRAVSIVFVPCGHLVCAECAPGLQLCPICRAPVRSRVRTF (BIRC7 RING domain (UniProt Q96CA5))	0
